Measurements collected from several papers.
Protocols differ between the studies behind these lines.
Target: Alpha-glucosidase MAL12 (MAL12, Saccharomyces cerevisiae S288c, UniProt P53341)
Chain of UniProt P53341 (whole entry, looked up): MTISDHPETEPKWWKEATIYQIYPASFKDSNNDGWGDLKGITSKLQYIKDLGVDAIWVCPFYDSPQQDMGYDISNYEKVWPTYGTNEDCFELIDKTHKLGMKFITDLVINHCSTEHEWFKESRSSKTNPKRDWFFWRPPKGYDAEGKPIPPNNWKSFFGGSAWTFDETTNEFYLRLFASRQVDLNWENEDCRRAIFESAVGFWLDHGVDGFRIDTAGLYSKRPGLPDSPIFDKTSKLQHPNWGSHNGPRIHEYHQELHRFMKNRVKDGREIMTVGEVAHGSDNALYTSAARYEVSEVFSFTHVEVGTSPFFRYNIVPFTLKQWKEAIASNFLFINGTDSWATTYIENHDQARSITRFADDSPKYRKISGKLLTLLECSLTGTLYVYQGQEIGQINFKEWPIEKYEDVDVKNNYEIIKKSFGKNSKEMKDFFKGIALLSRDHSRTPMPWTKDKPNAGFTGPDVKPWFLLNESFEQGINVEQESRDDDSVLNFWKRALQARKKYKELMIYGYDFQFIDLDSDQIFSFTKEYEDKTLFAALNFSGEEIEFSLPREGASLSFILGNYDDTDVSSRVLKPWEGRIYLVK

O=C1C(=O)N(CCOc2ccc(Cl)cc2)c2ccccc21
inhibition (enzyme activity, inhibitor; 500 µM, pH 6.8): 91.2%

O=C(/C=C/c1ccc(O)c2oc(-c3ccc(O)c(O)c3)cc12)O[C@H](Cc1ccc(O)c(O)c1)C(=O)O
Ki ratio, uncompetitive over competitive (inhibitor): 6 fold

COc1cc(-c2oc3cc(O)cc(O)c3c(=O)c2OC)ccc1O
inhibition (enzyme activity, inhibitor, absorbance; 10 µM): 43.1%

CN(C)c1ccc(C(=NN=Cc2ccc(O)c(O)c2O)c2ccc(N(C)C)cc2)cc1
activity (enzyme activity, inhibitor; concentration not given, pH 6.8, 37 °C, together with: p-nitrophenyl alpha-D-glucopyranoside): inactive

O=C1C(=O)N(CCOc2ccccc2)c2ccc(Cl)cc21
inhibition (enzyme activity, inhibitor; 500 µM, pH 6.8): 92.4%

Cc1cccc(/C=C/C(=O)c2cnn(-c3ccccc3)c2C)c1
inhibition (enzyme activity, inhibitor; 400 µM): 47.5%

O=C1C(=O)N(CCOc2ccc(Br)cc2)c2ccccc21
inhibition (enzyme activity, inhibitor; 500 µM, pH 6.8): 88.8%

COc1c(-c2cccc(O)c2)oc2c(OC)c(O)cc(O)c2c1=O
inhibition (enzyme activity, inhibitor, absorbance; 5 µM): 47%

C=C1C(=O)O[C@@H]2[C@H]3C(CO)=CC(=O)C3=C(C)C[C@H](O)[C@@H]12
Vmax (enzyme activity, inhibitor; 26.09 µM): 0.016 mM/min

COc1cc(O)c2c(=O)c(OC)c(-c3ccc(O)c(O)c3)oc2c1
inhibition (enzyme activity, inhibitor, absorbance; 25 µM): 14.2%

O=C1OCC(Cc2ccccc2)=C1c1ccccc1
Vmax (enzyme activity; together with: p-nitrophenyl glucoside): 1.72 mM/min

Repeated from above:
C=C1C(=O)O[C@@H]2[C@H]3C(CO)=CC(=O)C3=C(C)C[C@H](O)[C@@H]12
Vmax (enzyme activity, inhibitor; 26.09 µM): 0.016 mM/min
